Assay results collected from several papers.
Parts stem from different laboratories: compare values within a part only.
Sequence of UniProt O75914 (whole entry, looked up): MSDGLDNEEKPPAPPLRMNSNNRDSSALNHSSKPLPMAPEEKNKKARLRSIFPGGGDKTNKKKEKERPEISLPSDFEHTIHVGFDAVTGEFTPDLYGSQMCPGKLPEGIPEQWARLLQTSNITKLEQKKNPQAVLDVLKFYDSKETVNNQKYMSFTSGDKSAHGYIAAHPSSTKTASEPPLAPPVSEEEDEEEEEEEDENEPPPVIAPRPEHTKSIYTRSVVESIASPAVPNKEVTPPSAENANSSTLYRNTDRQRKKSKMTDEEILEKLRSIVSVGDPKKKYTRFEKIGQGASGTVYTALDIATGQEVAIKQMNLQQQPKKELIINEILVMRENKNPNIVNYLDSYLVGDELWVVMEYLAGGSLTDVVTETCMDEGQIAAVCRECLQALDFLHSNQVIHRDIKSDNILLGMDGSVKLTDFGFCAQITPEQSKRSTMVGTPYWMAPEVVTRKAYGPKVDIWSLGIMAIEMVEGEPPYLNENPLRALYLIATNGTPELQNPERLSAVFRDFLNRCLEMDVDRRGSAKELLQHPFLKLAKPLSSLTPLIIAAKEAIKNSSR
Sequence of UniProt P62344 (whole entry, looked up): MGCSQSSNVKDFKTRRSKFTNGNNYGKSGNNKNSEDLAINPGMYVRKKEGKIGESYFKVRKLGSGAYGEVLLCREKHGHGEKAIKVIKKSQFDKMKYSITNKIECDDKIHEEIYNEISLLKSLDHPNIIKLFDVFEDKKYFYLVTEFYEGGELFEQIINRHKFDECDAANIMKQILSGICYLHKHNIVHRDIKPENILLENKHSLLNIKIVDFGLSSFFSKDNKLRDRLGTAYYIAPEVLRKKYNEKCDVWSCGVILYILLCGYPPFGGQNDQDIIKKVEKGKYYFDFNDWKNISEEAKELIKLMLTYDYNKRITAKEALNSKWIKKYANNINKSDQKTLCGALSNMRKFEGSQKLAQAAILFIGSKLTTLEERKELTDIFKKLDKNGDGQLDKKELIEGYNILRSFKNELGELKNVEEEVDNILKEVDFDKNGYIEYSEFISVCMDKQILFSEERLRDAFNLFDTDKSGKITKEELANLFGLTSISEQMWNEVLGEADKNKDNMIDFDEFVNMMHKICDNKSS
Sequence of UniProt P35968 (whole entry, looked up): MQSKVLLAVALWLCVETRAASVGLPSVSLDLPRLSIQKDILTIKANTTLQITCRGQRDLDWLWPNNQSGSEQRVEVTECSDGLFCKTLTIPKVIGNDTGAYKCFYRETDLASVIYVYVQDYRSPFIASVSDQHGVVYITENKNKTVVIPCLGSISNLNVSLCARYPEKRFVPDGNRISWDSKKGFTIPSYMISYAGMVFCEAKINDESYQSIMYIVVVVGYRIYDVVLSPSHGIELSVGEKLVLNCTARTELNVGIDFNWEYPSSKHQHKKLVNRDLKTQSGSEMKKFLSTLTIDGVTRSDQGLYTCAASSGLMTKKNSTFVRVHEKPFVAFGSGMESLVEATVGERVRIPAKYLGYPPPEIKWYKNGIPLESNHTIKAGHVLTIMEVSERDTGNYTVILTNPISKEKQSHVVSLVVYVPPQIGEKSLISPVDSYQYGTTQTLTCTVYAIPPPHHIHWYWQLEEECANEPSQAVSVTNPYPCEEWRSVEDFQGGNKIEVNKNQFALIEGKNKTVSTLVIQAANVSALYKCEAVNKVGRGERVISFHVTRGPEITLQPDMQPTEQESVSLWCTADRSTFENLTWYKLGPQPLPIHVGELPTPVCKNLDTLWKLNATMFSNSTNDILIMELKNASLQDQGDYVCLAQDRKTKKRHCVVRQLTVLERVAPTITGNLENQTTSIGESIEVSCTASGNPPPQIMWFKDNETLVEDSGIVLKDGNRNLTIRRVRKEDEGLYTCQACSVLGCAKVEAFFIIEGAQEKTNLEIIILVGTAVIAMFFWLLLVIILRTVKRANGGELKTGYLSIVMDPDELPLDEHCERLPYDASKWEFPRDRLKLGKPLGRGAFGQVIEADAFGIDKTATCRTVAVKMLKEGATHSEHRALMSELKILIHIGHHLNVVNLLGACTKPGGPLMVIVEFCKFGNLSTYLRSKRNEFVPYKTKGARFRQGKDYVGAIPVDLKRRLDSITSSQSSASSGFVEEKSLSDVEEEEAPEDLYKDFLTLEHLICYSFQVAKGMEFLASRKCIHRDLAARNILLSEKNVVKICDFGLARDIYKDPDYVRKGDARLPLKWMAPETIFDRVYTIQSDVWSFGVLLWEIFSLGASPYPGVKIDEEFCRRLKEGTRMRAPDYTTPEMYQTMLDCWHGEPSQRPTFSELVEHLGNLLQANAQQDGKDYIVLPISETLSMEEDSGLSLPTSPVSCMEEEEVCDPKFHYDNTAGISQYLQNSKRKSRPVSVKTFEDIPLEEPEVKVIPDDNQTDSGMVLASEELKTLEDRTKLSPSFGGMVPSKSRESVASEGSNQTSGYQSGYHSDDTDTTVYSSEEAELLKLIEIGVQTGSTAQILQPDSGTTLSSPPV
Sequence of UniProt Q96RG2 (whole entry, looked up): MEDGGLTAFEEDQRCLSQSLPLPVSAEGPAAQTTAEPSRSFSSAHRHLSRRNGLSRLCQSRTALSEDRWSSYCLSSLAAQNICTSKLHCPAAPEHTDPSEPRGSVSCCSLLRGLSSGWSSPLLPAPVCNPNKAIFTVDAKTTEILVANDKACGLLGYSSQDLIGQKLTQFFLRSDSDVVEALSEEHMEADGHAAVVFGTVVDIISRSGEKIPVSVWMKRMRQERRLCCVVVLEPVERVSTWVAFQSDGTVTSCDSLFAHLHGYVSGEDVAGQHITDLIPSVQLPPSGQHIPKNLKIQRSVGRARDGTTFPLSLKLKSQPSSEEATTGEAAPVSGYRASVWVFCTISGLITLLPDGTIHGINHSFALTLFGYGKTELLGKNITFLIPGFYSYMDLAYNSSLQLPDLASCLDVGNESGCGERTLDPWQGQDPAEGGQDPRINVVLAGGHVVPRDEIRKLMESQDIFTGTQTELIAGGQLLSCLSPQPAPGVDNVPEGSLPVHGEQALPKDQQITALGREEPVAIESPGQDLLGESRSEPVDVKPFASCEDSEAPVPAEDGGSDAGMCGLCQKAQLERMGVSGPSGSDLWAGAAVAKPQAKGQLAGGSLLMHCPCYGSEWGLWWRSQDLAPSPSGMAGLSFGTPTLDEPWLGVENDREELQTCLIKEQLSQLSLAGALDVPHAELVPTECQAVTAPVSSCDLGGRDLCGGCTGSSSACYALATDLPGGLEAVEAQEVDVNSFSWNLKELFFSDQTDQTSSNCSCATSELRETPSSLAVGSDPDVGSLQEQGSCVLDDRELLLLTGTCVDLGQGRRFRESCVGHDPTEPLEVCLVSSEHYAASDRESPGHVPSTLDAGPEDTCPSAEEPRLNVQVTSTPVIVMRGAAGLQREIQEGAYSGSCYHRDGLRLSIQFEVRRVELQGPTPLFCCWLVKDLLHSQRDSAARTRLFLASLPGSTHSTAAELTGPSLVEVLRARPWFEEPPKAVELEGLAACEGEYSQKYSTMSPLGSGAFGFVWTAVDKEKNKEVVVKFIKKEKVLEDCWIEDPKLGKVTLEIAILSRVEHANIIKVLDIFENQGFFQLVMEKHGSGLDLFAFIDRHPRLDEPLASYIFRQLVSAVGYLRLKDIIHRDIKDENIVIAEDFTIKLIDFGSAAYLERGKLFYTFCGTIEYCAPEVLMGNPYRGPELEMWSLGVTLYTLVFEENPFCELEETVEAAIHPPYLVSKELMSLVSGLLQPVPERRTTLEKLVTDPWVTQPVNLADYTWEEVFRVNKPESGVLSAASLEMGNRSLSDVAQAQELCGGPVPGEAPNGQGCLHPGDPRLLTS
Sequence of UniProt Q05655 (whole entry, looked up): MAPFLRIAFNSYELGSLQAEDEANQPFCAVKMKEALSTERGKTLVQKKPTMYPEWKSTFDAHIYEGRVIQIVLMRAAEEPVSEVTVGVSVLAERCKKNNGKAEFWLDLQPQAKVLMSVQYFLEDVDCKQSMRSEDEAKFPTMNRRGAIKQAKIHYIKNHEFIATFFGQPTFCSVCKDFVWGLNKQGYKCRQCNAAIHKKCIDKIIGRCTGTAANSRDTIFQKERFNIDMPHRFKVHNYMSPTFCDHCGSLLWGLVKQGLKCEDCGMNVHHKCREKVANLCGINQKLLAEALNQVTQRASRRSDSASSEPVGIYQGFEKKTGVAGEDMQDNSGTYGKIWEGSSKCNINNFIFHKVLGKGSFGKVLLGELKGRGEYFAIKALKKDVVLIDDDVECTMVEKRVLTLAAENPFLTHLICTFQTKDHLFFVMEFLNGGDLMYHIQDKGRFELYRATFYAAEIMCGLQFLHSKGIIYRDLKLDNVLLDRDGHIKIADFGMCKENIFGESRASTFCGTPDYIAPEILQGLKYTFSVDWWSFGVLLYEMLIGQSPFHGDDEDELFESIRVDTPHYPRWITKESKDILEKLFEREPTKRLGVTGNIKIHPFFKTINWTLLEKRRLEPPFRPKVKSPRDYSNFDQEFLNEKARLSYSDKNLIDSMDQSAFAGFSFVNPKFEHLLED
Sequence of UniProt Q8NG66 (whole entry, looked up): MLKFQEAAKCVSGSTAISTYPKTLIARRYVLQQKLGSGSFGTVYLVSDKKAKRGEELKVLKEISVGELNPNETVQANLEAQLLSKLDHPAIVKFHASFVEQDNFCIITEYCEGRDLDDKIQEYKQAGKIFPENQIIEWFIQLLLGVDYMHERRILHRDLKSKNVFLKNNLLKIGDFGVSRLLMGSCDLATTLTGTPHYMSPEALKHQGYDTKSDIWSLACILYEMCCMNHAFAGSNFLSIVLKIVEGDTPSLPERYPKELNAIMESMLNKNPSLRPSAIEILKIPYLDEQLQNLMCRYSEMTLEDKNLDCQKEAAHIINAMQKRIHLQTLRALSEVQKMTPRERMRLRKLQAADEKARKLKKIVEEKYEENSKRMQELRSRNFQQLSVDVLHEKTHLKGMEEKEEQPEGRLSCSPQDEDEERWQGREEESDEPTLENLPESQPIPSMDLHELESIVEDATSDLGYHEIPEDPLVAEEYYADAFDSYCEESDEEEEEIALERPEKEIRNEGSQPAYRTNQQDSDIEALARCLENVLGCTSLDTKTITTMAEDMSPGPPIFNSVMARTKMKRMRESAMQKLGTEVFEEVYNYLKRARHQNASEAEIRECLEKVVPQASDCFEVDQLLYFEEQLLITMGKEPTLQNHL

Series 1 — organism: Sarcocystis neurona; effect on: parasite growth; tested at: 10 µM; time: 96 h; notes: first screen; baseline: untreated
Structure (SMILES)	log2 fold change
CC(O)(CS(=O)(=O)c1ccc(F)cc1)C(=O)Nc1ccc(C#N)c(C(F)(F)F)c1 (centres unmarked)	0.0645
CCc1nc(N)nc(N)c1-c1ccc(Cl)cc1	-3.81
C=CCN1CC[C@]23c4c5ccc(O)c4O[C@H]2C(=O)CC[C@@]3(O)[C@H]1C5	0.17
C[C@]12CC[C@H](O)CC1=CC[C@@H]1[C@@H]2CC[C@]2(C)C(=O)CC[C@@H]12	-0.0122

Series 2 — Structure (SMILES): CC(C)(C)c1cc(C=C(C#N)C#N)cc(Br)c1O; effect on: enzyme activity; mode: inhibitor; tested at: 0.5 µM
target	baseline	remaining activity [%]
KDR (Homo sapiens, UniProt P35968)		97.8
PRKCD (Homo sapiens, UniProt Q05655)		83
PAK3 (Homo sapiens, UniProt O75914)	control	96.9
PASK (Homo sapiens, UniProt Q96RG2)		96.7
NEK11 (Homo sapiens, UniProt Q8NG66)		87
CAMK4 (Homo sapiens, UniProt Q16566)	control	94.2
Cyclin-dependent kinase 1, with cyclin B (CDK1, Homo sapiens, UniProt P06493)		72.6

Further values, each from its own experiment
Compound	tested on	assay	test system	setting	scale	measurement	result
NS(=O)(=O)c1cc(NC(=O)Cc2ccccc2)ccc1Oc1cccc(Cl)c1	CDPK1 (Plasmodium falciparum, UniProt P62344)	cell-free assay, competition with immobilised ligand		1 µM		remaining binding	91%
CONC(=O)[C@H]1[C@@H](O)[C@@]2(O)c3c(OC)cc(OC)cc3O[C@@]2(c2ccc(Br)cc2)[C@@H]1c1ccccc1	EIF4A1 (Homo sapiens, UniProt P60842)	RNA clamping, fluorescence polarization		concentration not given, together with: FAM-labelled poly r(AG)8 RNA		fluorescence polarization change	30 mP
CN[C@@H]1C[C@H]2O[C@@](C)([C@@H]1OC)n1c3ccccc3c3c4c(c5c6ccccc6n2c5c31)C(=O)NC4	normal organoid sample H	CellTiter-Glo	human, normal-adjacent epithelium	1 µM	baseline: DMSO	viability	3.1%

Some of these lines once more (further values, each from its own experiment):
Compound	tested on	assay	test system	setting	scale	measurement	result
CONC(=O)[C@H]1[C@@H](O)[C@@]2(O)c3c(OC)cc(OC)cc3O[C@@]2(c2ccc(Br)cc2)[C@@H]1c1ccccc1	EIF4A1 (Homo sapiens, UniProt P60842)	RNA clamping, fluorescence polarization		concentration not given, together with: FAM-labelled poly r(AG)8 RNA		fluorescence polarization change	30 mP
CN[C@@H]1C[C@H]2O[C@@](C)([C@@H]1OC)n1c3ccccc3c3c4c(c5c6ccccc6n2c5c31)C(=O)NC4	normal organoid sample H	CellTiter-Glo	human, normal-adjacent epithelium	1 µM	baseline: DMSO	viability	3.1%
